Measured values of several laboratories.
Parts stem from different laboratories: compare values within a part only.

Set 1 — technique: aptamer microarray, sandwich; molecule type: DNA with 2'F-ANA; sample: in vitro; concentration: 200 nM; added: Cy3 exosite-II aptamer, 400 nM; reading: higher = stronger binding; strand: GGTTGGTGTGGTTGG
Target: Prothrombin, mature alpha-thrombin (F2, Homo sapiens, UniProt P00734)
Notes: whole 15-mer aptamer, many near background
| Modification | mean fluorescence intensity |
| --- | --- |
| 2'F-ANA at 1 3 4 7 8 9 11 12 13 | 255 a.u. |
| 2'F-ANA at 1 2 5 8 13 14 | 64.3 a.u. |
| 2'F-ANA at 1 3 4 5 8 9 14 | 45.2 a.u. |
| 2'F-ANA at 1 2 4 6 7 10 11 12 | 61.7 a.u. |
| 2'F-ANA at 1 2 5 7 8 12 | 122 a.u. |
| 2'F-ANA at 4 7 10 12 | 127 a.u. |
| 2'F-ANA at 1 2 5 6 7 8 10 11 12 13 14 | 50.6 a.u. |
| 2'F-ANA at 4 7 8 9 10 11 12 14 15 | 70.6 a.u. |
| 2'F-ANA at 1 2 5 6 7 10 15 | 48.7 a.u. |
| 2'F-ANA at 2 5 6 12 13 14 | 49.2 a.u. |
| 2'F-ANA at 1 2 4 6 7 8 10 12 14 15 | 51 a.u. |
| 2'F-ANA at 3 6 8 9 11 13 14 15 | 426 a.u. |
| 2'F-ANA at 1 2 3 4 5 7 8 9 11 13 14 15 | 49.2 a.u. |
| 2'F-ANA at 1 2 4 5 6 7 9 13 15 | 49.8 a.u. |
| 2'F-ANA at 1 2 5 6 7 9 10 11 14 | 59.7 a.u. |
| 2'F-ANA at 2 6 10 11 13 14 | 80.6 a.u. |
| 2'F-ANA at 5 7 9 10 12 15 | 52.1 a.u. |
| 2'F-ANA at 1 2 3 7 9 10 11 12 14 | 53.2 a.u. |
| 2'F-ANA at 2 4 6 9 10 11 12 13 | 88.7 a.u. |
| 2'F-ANA at 4 6 8 9 11 12 13 14 15 | 83.2 a.u. |
| 2'F-ANA at 1 2 6 7 10 13 15 | 50 a.u. |
| 2'F-ANA at 1 5 6 15 | 54.7 a.u. |

Set 2 — technique: RNA Bind-n-Seq; molecule type: RNA; sample: in vitro; concentration: 365 nM; reference: no-protein control; reading: higher = stronger binding
Target: RNA binding protein fox-1 homolog 2, RRM domain, GST-SBP tag (RBFOX2, Homo sapiens, UniProt O43251-10, residues 100-194)
Notes: natural RNA segment, single round, ends assumed
All sequences stand within: GGGAGUUCUACAGUCCGACGAUC … UGGAAUUCUCGGGUGCCAA
Residues (chain): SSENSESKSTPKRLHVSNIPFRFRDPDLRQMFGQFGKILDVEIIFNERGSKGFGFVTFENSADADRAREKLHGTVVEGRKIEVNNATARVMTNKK
| Strand | RBNS enrichment (R) |
| --- | --- |
| AACUGUUUAACUUGAACCCAGGAUUGUUUAAAGCUUUAUUUAUUUAUAGCUUCUUCUUAAAAAAAAGUGUUGAAGAAAUUUUUUGGUUAUUCAUACAAAAAAAUGAGUUG | 0.963 |
| ACCAAAUAUGAACUUGUGAGUUGUGUCAAUGCAGAGAACCGGGGUUUUGUGUUAAUAGAGUAUUGUUUUAGCAUGUGAUCAGAUCUUAAGAAAGAAAGAAAGAAAGACAG | 16.6 |
| AGGUACUAAUUUGUAGCUGCUCUGAAGUAAGGAUUUCGGAUUCAGCUGGUAGGGAAAGACUCUGCACCUGCUGUCUUAGGGAAGAAAUGGUUCAAAUCCAUGUGGUGACA | 0.604 |
| GAGGCGAGUGAGUGGCAUUAGCUCCCGGACCCAUUCCCGGUCCUAGCUGGGCAUGGGGCUGACGGAGAUGACCAAGCCUUGGUCUGCUCUCUAGCAGCUUCCACAGACUU | 0.262 |
| AUUAAACAGACCUUAGUUUCCAUAUAGAAACUUUAUAACUGAAACACCCUUAAGUAUUUAUAUUCUUUAAUUAUCUGACCCACAAGGAGGGACCUCGGCUUCUUGAGGCA | 1.58 |
| UUCUAGACUUUUUGUUUCUUGCAACAACAGUGCCCUCUGCUGCUAGAAACCUUUUUCUACUUACUAUCAUUUUUAUUGUGGCUUGAGCUCAGUCAAUCUGGUGCAGAUGA | 0.567 |
| CUCCCAACUUGUUUGUCCCUAGAAGCAGACAACUUUGAACCAAAAGCAUCUCAGUCAAGCAUCUAAAACAGGGGGCAGUCUGUGUAUACAAGAGCCCACCUCCUGCUGUG | 0.311 |
| CAAUUGGUAUUACAGGGGGGAAAAGUAAAAUUACACUUUACCUGAAAGUGACUUCUUACAGCUAGUGCAUUGUGCUCUUUCCAAGUUCAGCAGCAGUUCUAUCAGUGGUG | 0.457 |
| GCCCCUGGCCAUCCUUGUUGGAGGCUUCUGGGUGGAACACUGGGUCUAGAACCUUCUUCCGUGGCUCUCAGGCAGCCCAAGGCCCAACACCAGUUGGGAUAAGUGUCAGA | 0.231 |
| GCCACUUCUCCCUGUCCACUAGAGGUCGCUGUCUUCACAGCUUCUCUCACCCUAGCCAAAGGUCCUAAGAGGAGACCCGCUGUGAAGUCUGGCCUGCUCUUUGGUACCAG | 0.19 |
| AGCCCAGAUUUAUUUCAAUUCAAAUAUUACUGCUUCGUAAUUAUGAAGAGUAGUGCAAAUUUACAGAGCACUGUCAAAGACUGACAGAAAAAAAAAAGAUCUGCUCUGUA | 0.483 |
| CUUGCCCAAUGUAGACUUUCCUUUAUUAGAUUGAAGUACACAACCUAAUAUGAUAUAUUAUUUUGUAGUAUCUCAGACUUUGUAAAUAAAUGCCAUUAUUUUUAUAUGGA | 0.501 |

Set 3 — technique: protein-binding microarray; molecule type: double-stranded DNA, one strand shown; sample: in vitro; concentration: 940 nM top; notes: 60-bp whole probe; added: salmon DNA 0.4 mg/ml; reference: random background probes; reading: higher = stronger binding; all sequences stand within: GCCTAGCAC … GTCTTGATTCGCTTGACGCTGCTG
Target: Interferon regulatory factor 5, full length, phosphomimetic (IRF5, Homo sapiens, UniProt Q13568-2, residues 1-514, S451D/S453D/S456D/S462D)
| Strand | fitted relative affinity [z-score] |
| --- | --- |
| TTAAATATCAGTTTCGATTAGTGCTAG | 8.73 |
| TCATAACTCAAGATTCCTACTGTGCTA | 0.394 |
| TTAGGTTTCGACACTGGGTCAGTGCTA | 8.54 |
| GTAGATTTCAGACTGGATTAGTGCTAG | -0.268 |
| TTAGGTTCCGACTTTCGGTTAGTGCTA | 2.86 |
| TTAGATTTCGGGTATCGACTAGTGCTA | 2.28 |
| TTAGGTATCGCCTATCGGTTAGTGCTA | 3.76 |
| TTAGGCTTCGGGACTGGGTTAGTGCTA | -0.261 |
| TCACTTACCTCACTCGTACTGTGCTAG | 0.883 |
| GATGGTTTCGGGACTGGGGACGTGCTA | 8.48 |
| GACGGTATCCCTTTCCTGACGTGCTAG | 0.921 |
| TTAGGTTTCGGGTATCGGTGAGTGCTA | 11 |
| TCTACTTCTGTTTTTGCTTTGTGCTAG | 1.07 |
| TTAGGTTCCCTTTTCCTTTAGTGCTAG | 0.885 |
| GACTATTTCGGGTTTCGAGACGTGCTA | 2.6 |
| TTAGAACTGAGTTTTGATTAGTGCTAG | -0.0268 |
| TCATGTCCTCCTCTCTCACTGTGCTAG | 0.809 |
| TCAATTTTCTGAATGTCACTGTGCTAG | 0.468 |
| TCACCTATGTCATTTACACTGTGCTAG | 0.414 |
| GACGGTTTCGGGTTTCGGGTCGTGCTA | 10.8 |
| GACGGGCTCCTTATCCTGACGTGCTAG | 0.0353 |
| TTAGGTTTCGGTTCCGGATAGTGCTAG | 14.7 |
| GATGGTTTCGACTTTCGGGACGTGCTA | 8.62 |
| AACGAACTGGGGACTGGAGACGTGCTA | 0.247 |
| TTAGGTTTCCTACGGCTTTAGTGCTAG | 0.285 |

Set 4 — technique: RNA Bind-n-Seq; molecule type: RNA; sample: in vitro; concentration: 100 nM; reference: input RNA pool; reading: higher = stronger binding
Target: RING finger protein unkempt homolog, zinc fingers 1-6, SBP tag (UNK, Homo sapiens, UniProt Q9C0B0, residues 30-357)
UniProt Q9C0B0, sequence (30-357, looked up): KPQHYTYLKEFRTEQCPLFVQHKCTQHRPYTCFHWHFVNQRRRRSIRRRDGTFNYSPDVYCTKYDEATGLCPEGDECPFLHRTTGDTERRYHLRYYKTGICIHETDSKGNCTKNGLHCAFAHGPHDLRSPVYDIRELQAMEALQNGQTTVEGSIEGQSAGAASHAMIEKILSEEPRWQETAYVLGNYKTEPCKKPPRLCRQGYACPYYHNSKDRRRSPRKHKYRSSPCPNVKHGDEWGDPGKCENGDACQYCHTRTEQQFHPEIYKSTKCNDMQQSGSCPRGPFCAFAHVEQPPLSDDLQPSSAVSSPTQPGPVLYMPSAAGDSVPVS
Notes: RNA with constant flanks, vertebrate orthologous sites, ends assumed
All sequences stand within: GGGAGUUCUACAGUCCGACGAUC … CAACAGAGGAUUGAGCAUCA
| Strand | bound/input enrichment |
| --- | --- |
| CUACUCCCGCUCCAGCAGGGGUGUGGGGCCGAAGCAUCCACCAGCACUGCAAGGGGUCCACGGUAUUUUUUUUUUUGCUGCCUCAGUCCCCAGAGCCUUCAAGCAACAGUGGCUGUAGAU | 0.505 ratio |
| CCUUAACUAGAGGUAGUAUAUGUUUCAUAAAGAGGAGUCUUUUUAAUUUUGUUUGUCAUAUAGUAUUUUGGAAUUUGUAUAAUGAGAAUGUUUAGAAGCCAUAUCAAUGGCUUUUUUUAA | 0.992 ratio |
| AGCAGUAGCAUUGGUUGUUUUUUUGUUGUUUGUUUUUCUUUUGGUAAAUGUAAAAAUAAUUAGAUCCAGACUUUGUUUCCUUAUUCAAUUUUAAAAAUAAAAAAUACCUCAGUGCUGUUU | 0.841 ratio |
| CUCUUUUCCAGGUUGGAUAUACUGGAAAAGUCAUAGGAAUUGAUCACAUUAAAGAGCUAGUAGAUGACUCAAUAAAUAAUGUCAGGAAGGACGAUCCAACACUUCUGUCUUCAGGGAGAG | 0.807 ratio |
| UCCCAGCACUUUGAUAAAAAAUGUAGACUGGUUGCUUGUAUUUUCCUUAUUCUUUUUAAUUAGUUUUAUUAUGUAUGCUACCGUUCGAACUGAGAGUAUUCGAUGGCUAAUUCCAGGACA | 2.27 ratio |
| CUCGGGGAUACCGUGGGGCGCCGCUGACUGCUUCGCGUCGUUUGAUUUGUGACCUUGAGAUAAUAGAUAGGCUUGUGGUUUGUUUGUUUUUUUAAUUUAAAGAUAUUAAGACUUAAUUCA | 0.511 ratio |
| UGUUCGUGUCAUACCAGCAUAUUAACCUCGCGUCUGUGCACAGCUUCAAAUGUACCGUCGAGUUAGAUUUUUAUUUAAAAGUAUGGAAGGAAAAAAACCCUGCUUUUCCCAAGAUGUUUU | 1.14 ratio |
| ACCUUUUGUAGGCCAAAUACCCUCCUUCUACUGCUUCUGCCAACUGGAAGCACAGAAAACUAGAAUUUCAUUUUAUUUUGUUUAAAAAAAAAAAAAAAAUUGAUUUCUUGUAACAUCCAC | 0.758 ratio |
| AAAUUUAUUUCAUGCCCUGGACUCCAUAUCGUACCGAUACUUUAAUAGAAUAUGCUUCUUUAGAAGAUUUCCAAAAUAGUCGCCAAACAACAACAUAUAAACUUCCAAAUCGAGUAGAUG | 2.38 ratio |
| CACAAUCUCUACUUAAGUAGGUUUUUACAUACCAAGUUAAGCCUUCAUUUUACAUAUUUACAUCUUUUCUCCAGAGGAGAUAAAAGAAUCUCGUGCUUAAAGUUACAUGUGGUCUUUGCC | 0.347 ratio |
| GUCUAGUGUUUAAGCCAGCACUUGUAGAACGCUAUUUAUUUGUGUCUCUAAGUUUGUACAUAAUCUUAACCUCAUAUUGUUGCUGAGUUUCAUUUUGAGGAAGGCAAAUUUGAGUUUUAU | 0.726 ratio |
